Values quoted from earlier work as cited in several papers.
Compare with care: the assays were run in different laboratories. Numbers after ± are the reported error.

| Molecule | target or system | assay | system | setting | measurement | result |
| --- | --- | --- | --- | --- | --- | --- |
| Brc1ccc(CN2CCC(CCOC(c3ccccc3)c3ccccc3)CC2)cc1 | serotonin transporter | reuptake, inhibitor |  |  | IC50 | 2.57 ± 0.179 µM |
| Oc1cccc(-c2nc(N3CCOCC3)c3oc4ncccc4c3n2)c1 | PI4KIIIα | enzyme activity, inhibitor |  | added: 10 µM ATP | IC50 | > 100 µM |
| CC(C)C[C@H](NC(=O)[C@@H](CC(=O)NO)Cc1ccccc1)C(=O)O | neprilysin | inhibitor |  | range reported for several peptidases | IC50 | 0.03 to 0.06 µM |
| C[C@@H](NCCN(C)C)[C@@H]1CC[C@@H]2[C@H]3CCc4cc(O)ccc4[C@@H]3CC[C@]21C | CatSper, human | channel activation, inhibitor |  | added: progesterone and PGE1 | IC50 | 5.7 µM |
| Cc1ccc([N+](=O)[O-])cc1S(=O)(=O)N(C)/N=C/c1cnc2ccc(Br)cn12 | mTORC1 | enzyme activity, inhibitor |  | added: 10 µM ATP | IC50 | 1 µM |
| CN[C@@H]1C[C@H]2O[C@@](C)([C@@H]1OC)n1c3ccccc3c3c4c(c5c6ccccc6n2c5c31)C(=O)N[C@H]4O | RAF |  |  |  | IC50 | 0.62 µM |
| C[C@]12CC[C@@H]3c4cc(C56CC7CC(CC(C7)C5)C6)c(O)cc4CC[C@H]3[C@@H]1CC[C@@H]2O | HT-22 | cell protection |  | added: glutamate 20 mM | EC50 | 0.121 µM |
| CCCCCCCCCCCCNC(=O)NC1CCCCC1 | human soluble epoxide hydrolase | inhibitor |  | added: PHOME substrate | IC50 | 0.007 ± 0.0002 µM |
| O=C(Nc1ccccc1-c1ccc(F)c(F)c1)c1nccnc1C(F)(F)F | succinate dehydrogenase, Sclerotinia sclerotiorum | enzyme activity, inhibitor |  | median of 24 strains | IC50 | 0.0018 µM |
| O=C(O)c1ccc(C=C2SC(=S)N(c3cccc(C(F)(F)F)c3)C2=O)cc1 | CFTR | inhibitor |  |  | IC50 | ~0.3 µM |
| C[C@]12CC[C@@H]3c4cc(C56CC7CC(CC(C7)C5)C6)c(O)cc4CC[C@H]3[C@@H]1CCC2=O | HT-22 | cell protection |  | added: glutamate 10 mM | EC50 | 0.159 µM |
| CNC(=O)[C@H](Cc1c[nH]c2ccccc12)NC(=O)[C@@H](CC(=O)NO)CC(C)C | recombinant ADAM12 | inhibitor |  |  | IC50 | > 10 µM |
| CCN(CCO)CCCC(C)Nc1ccnc2cc(Cl)ccc12 (stereo not drawn) | IKs channel | ion current, inhibitor | CHO cells | room temperature | IC50 | > 300 µM |
| Cc1[nH]c(N)nc1CCC(=O)c1cc(F)cc(F)c1 | Hv1 proton channel | proton current, inhibitor |  |  | IC50 | 13.3 ± 1 µM |
| FMRWRD | ACE | enzyme activity, inhibitor | peptide |  | IC50 | 260 µM |
| CC(C)C[C@H](CC(=O)NO)C(=O)N[C@H](C(=O)N[C@@H](C)C(=O)NCCN)C(C)(C)C | recombinant ADAM12 | inhibitor |  |  | IC50 | > 100 µM |
| Cc1cc(C(C)Nc2ccccc2)c2oc(-c3ccncc3)cc(=O)c2c1 (stereo not drawn) | phosphatidylinositol 4-phosphate 5-kinase type I beta | enzyme activity, inhibitor |  | added: 10 µM ATP | IC50 | > 100 µM |
| CN1CC(=O)N2[C@H](c3ccc4c(c3)OCO4)c3[nH]c4ccccc4c3C[C@@H]2C1=O | PDE3 | inhibitor |  |  | IC50 | > 10 µM |
| N=C(N)SCCc1ccc(OCc2ccc([N+](=O)[O-])cc2)cc1 | Na+/Ca2+ exchanger reverse mode | inhibitor | hippocampal neurons |  | IC50 | 5.7 ± 2.1 µM |
| C=C(c1ccc(C(=O)O)cc1)c1cc2c(cc1C)C(C)(C)CCC2(C)C | CYP26A1 | enzyme activity, inhibitor |  | added: 9-cis-retinoic acid | IC50 | 12.3 µM |
| CNC(=O)c1ccccc1Nc1cc(Nc2ccc(N3CCOCC3)cc2OC)ncc1C(F)(F)F | FAK | Tyr397 autophosphorylation | breast carcinoma cells |  | IC50 | ~0.1 µM |

| Molecule | target or system | assay | system | setting | measurement | result |
| --- | --- | --- | --- | --- | --- | --- |
| NC[C@@H]1O[C@H](O[C@H]2[C@@H](O)[C@H](O[C@@H]3[C@@H](O)[C@H](N)C[C@H](N)[C@H]3O[C@H]3O[C@H](CO)[C@@H](O)[C@H](O)[C@H]3N)O[C@@H]2CO)[C@H](N)[C@@H](O)[C@@H]1O | rabbit ribosome | translation, inhibitor, item: firefly luciferase | rabbit reticulocyte lysate |  | IC50 | 57 ± 4 µM |
| COc1ccc2c(c1)c(CC(=O)O)c(C)n2C(=O)c1ccc(Cl)cc1 | PTGR2 | enzyme activity, inhibitor |  |  | IC50 | ~200 µM |
| CC(C)n1nc(-c2ccc3oc(N)nc3c2)c2c(N)ncnc21 | Plasmodium falciparum PI3K | enzyme activity, ELISA |  |  | IC50 | 0.056 µM |
| Nc1nc2c(nc(Sc3ccc(Cl)cc3)n2C2OC3COP(O)(=S)OC3C2O)c(=O)[nH]1 (stereo not drawn) | PDE1B | cyclic nucleotide hydrolysis, substrate or inhibitor, isothermal titration calorimetry |  |  | Km or Ki | 2.1 µM |
| GST-Skp2(1-424) fusion protein | CDK2-cyclin A (human) | Rb phosphorylation, inhibitor |  | added: Rb | IC50 | 0.52 µM |
| O=C(CCCCCN1C(=O)c2cccc3cccc(c23)C1=O)NO | class I HDACs | inhibitor |  |  | IC50 | < 0.005 µM |
| CCCC(CCC)C(=O)O | HDAC4 | inhibitor |  |  | IC50 | 1500 µM |
| [Cu+2] | voltage-gated calcium channels | barium current, blocker |  |  | IC50 | 920 µM |
| CC1(C)[C@@H](OC(=O)CCC(=O)O)CC[C@]2(C)[C@H]3C(=O)C=C4[C@@H]5C[C@@](C)(C(=O)O)CC[C@]5(C)CC[C@@]4(C)[C@]3(C)CC[C@@H]12 | gap junction channels | gap junction current | human fibroblasts |  | IC50 | 3 µM |
| OC[C@H]1O[C@H](n2cc(-c3ccccc3)nn2)[C@@H](O)[C@@H](O)[C@@H]1O | FimH | binding, competitive binding |  |  | IC50 | 0.25 µM |
| COc1c(C)cc(NC(=O)c2nn(Cc3ccc(F)cc3)c3c2CN(C(=O)c2ccc[nH]2)C[C@]3(C)C(N)=O)cc1C | IDH1 R132G (human) | enzyme activity, inhibitor |  |  | IC50 | 0.009 to 0.017 µM |
| C[n+]1cn([C@@H]2O[C@H](COP(=O)(O)O)[C@@H](O)[C@H]2O)c2nc(N)[nH]c(=O)c21 | Caenorhabditis elegans decapping scavenger DcpS | hydrolytic activity, inhibitor |  |  | IC50 | 2.5 µM |
| CC1(C)CCC(C)(C)c2cc(C3(c4ccc(C(=O)O)cc4)OCCO3)ccc21 | CYP26A1 | enzyme activity, inhibitor |  | added: 9-cis-retinoic acid | IC50 | 3.3 µM |
| CCCNC(=N)NCCC[C@H](N)C(=O)O | nNOS | nitrergic vasodilation | bovine ciliary artery |  | IC50 | ~10 µM |
| Cc1cc([C@H](C)Nc2ccccc2)c2oc(N3CCOCC3)cc(=O)c2c1 | ATM | kinase activity, inhibitor |  | added: 10 µM ATP | IC50 | 35 µM |
| CC(C)(O)CC(=O)NCCn1ccc2ncnc(Nc3ccc(Oc4cccc(C(F)(F)F)c4)c(Cl)c3)c21 | HER2, human | kinase activity, inhibitor, cell-based |  |  | IC50 | 9.3 ng/mL |
| Nc1nc2c(nc(Sc3ccc(Cl)cc3)n2C2O[C@@H]3COP(=O)(O)O[C@H]3[C@H]2O)c(=O)[nH]1 (stereo in doubt) | PDE2A | cyclic nucleotide hydrolysis, substrate or inhibitor, isothermal titration calorimetry |  |  | Km or Ki | 40 µM |
| COc1ccc2c(c1OC)N=C(NC(=O)c1cccnc1)N1CCN=C21 | phosphatidylinositol 4-phosphate 5-kinase type I beta | enzyme activity, inhibitor |  | added: 10 µM ATP | IC50 | > 100 µM |
| CC(=O)O[C@H]1Cc2ccccc2N(C(N)=O)c2ccccc21 |  | psychomotor seizure protection | mice | 6 Hz 44 mA 3 s stimulation | ED50 | 15.9 mg/kg |
| CC(=O)Nc1cccc(O)c1 | lactate dehydrogenase (porcine heart) | enzyme activity, noncompetitive inhibitor |  |  | IC50 | 78 ± 21 µM |
| C[C@H](c1ccc(F)cc1CCCC(=O)O)N(c1cc(F)ccc1F)S(=O)(=O)c1ccc(Cl)cc1 | γ-secretase | inhibitor |  |  | IC50 | 0.008 to 0.3 µM |

A few entries again:
| Molecule | target or system | assay | system | setting | measurement | result |
| --- | --- | --- | --- | --- | --- | --- |
| O=C(Nc1ccccc1-c1ccc(F)c(F)c1)c1nccnc1C(F)(F)F | succinate dehydrogenase, Sclerotinia sclerotiorum | enzyme activity, inhibitor |  | median of 24 strains | IC50 | 0.0018 µM |
| COc1c(C)cc(NC(=O)c2nn(Cc3ccc(F)cc3)c3c2CN(C(=O)c2ccc[nH]2)C[C@]3(C)C(N)=O)cc1C | IDH1 R132G (human) | enzyme activity, inhibitor |  |  | IC50 | 0.009 to 0.017 µM |
| OC[C@H]1O[C@H](n2cc(-c3ccccc3)nn2)[C@@H](O)[C@@H](O)[C@@H]1O | FimH | binding, competitive binding |  |  | IC50 | 0.25 µM |
| CCCC(CCC)C(=O)O | HDAC4 | inhibitor |  |  | IC50 | 1500 µM |
| CCN(CCO)CCCC(C)Nc1ccnc2cc(Cl)ccc12 (stereo not drawn) | IKs channel | ion current, inhibitor | CHO cells | room temperature | IC50 | > 300 µM |
